Results of several laboratories.
Parts stem from different laboratories: compare values within a part only.

Series 1
Target: Hepatocyte nuclear factor 3-beta, forkhead domain (FOXA2, Homo sapiens, UniProt Q9Y261, residues 142-269)
Method: protein-binding microarray
Molecule type: double-stranded DNA, one strand shown
Matrix: in vitro
Concentration: not given
Notes: k-mer, scored over probes, only values ≥0.25
Reading: higher = stronger binding
Residues (chain): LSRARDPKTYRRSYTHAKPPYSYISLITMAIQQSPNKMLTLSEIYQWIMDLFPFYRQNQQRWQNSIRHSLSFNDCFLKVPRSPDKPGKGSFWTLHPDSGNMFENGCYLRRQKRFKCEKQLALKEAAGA
For `AATATACC`, the E-score was 0.32.
With `AATAATTC` the E-score was 0.292.
With `ATTGACCA` the E-score was 0.258.

Mixed results
RBFOX2 RRM domain, GST-SBP tag: RNA binding protein fox-1 homolog 2, RRM domain, GST-SBP tag (RBFOX2, Homo sapiens, UniProt O43251-10, residues 100-194)
Fmr1 C-terminal low-complexity region: Fragile X messenger ribonucleoprotein 1, C-terminal low-complexity region (Fmr1, Mus musculus, UniProt P35922)
Under “RBNS enrichment (R)”, `GGGAGUUCUACAGUCCGACGAUCAUUCGGCUUUCAACUUUGCUACCAUCUUCCCUGAAGCAGGAAAAUGAACAUGGACUUAAAUGUUCUUUGAAAAAACCAAAGUUUUAAGAUUUGCUGUGUGAUGAAGUGACUGGAAUUCUCGGGUGCCAA` is recorded as 0.351 (RBFOX2 RRM domain, GST-SBP tag; RNA Bind-n-Seq; RNA, in vitro; 365 nM, natural RNA segment, single round, ends assumed; reference: no-protein control, higher = stronger binding).
With `GGGAGUUCUACAGUCCGACGAUCAAGUCCUGUGCUACACAUCGUAUGUACCGAAUCGGGAAAAAAAGGGAGGGUUUGGGAAAGUAUUAUGUUACGCCGUUCGGAUCUGCACUUUGGAAUUCUCGGGUGUCAAGG` the log2 enrichment was 0.572 (Fmr1 C-terminal low-complexity region; RNA Bind-n-Seq; RNA, in vitro; 200 nM, whole 134-nt RNA, ends assumed, together with: 150 mM KCl; reference: input library, higher = stronger binding).
For `GGGAGUUCUACAGUCCGACGAUCAUGCUGUUACAUCCAGAAUAUUCAUUAGGCUGCCCCACAGCUCUUCUGUAUAUAUAGAGACCACAGAGUUAGGAUUUUUUUUAAUGAGAAAAAUACUGUAUUUAAAAUGUUGGAAUUCUCGGGUGCCAA`, “RBNS enrichment (R)” read 0.304 (RBFOX2 RRM domain, GST-SBP tag; RNA Bind-n-Seq; RNA, in vitro; 365 nM, natural RNA segment, single round, ends assumed; reference: no-protein control, higher = stronger binding).
`GGGAGUUCUACAGUCCGACGAUCCACAGACAACACGCACCCACACAGACACAGAAGGAAGGGGUUGGGAUGGGGACAGGGUGCACAGCAGGGCGGGGUAGGACCCCAGCCCCUUGGAAUUCUCGGGUGUCAAGG` gave a log2 enrichment of 1.25 (Fmr1 C-terminal low-complexity region; RNA Bind-n-Seq; RNA, in vitro; 200 nM, whole 134-nt RNA, ends assumed, together with: 150 mM KCl; reference: input library, higher = stronger binding).
For `PhoQ, residues 284 288 289 292 302 303 DDMDFR`, the fold induction was 0.789 (PhoP, residues 12 14 15 18 19 IQSYL (Escherichia coli, UniProt P23836); Sort-seq, item: YFP reporter; E. coli; PhoQ-PhoP variant library, together with: 10 µM Mg2+; reference: high Mg2+ state, higher = stronger signaling).

A few entries again (mixed results):
For `PhoQ, residues 284 288 289 292 302 303 DDMDFR`, the fold induction was 0.789 (PhoP, residues 12 14 15 18 19 IQSYL (Escherichia coli, UniProt P23836); Sort-seq, item: YFP reporter; E. coli; PhoQ-PhoP variant library, together with: 10 µM Mg2+; reference: high Mg2+ state, higher = stronger signaling).
